Results collected from several papers.
A part holds a random share of what one study measured. Changes are numbered by the printed parent chain.

Set 1
Target: CCNF, cyclin fold, Cln2 fusion (human)
Technique: yeast growth competition, sequencing
Sample: yeast
Notes: weak parent motif
Relative to: not given
Direction: higher = stronger binding
Quantity: normalised enrichment score
Starting sequence: PKN2 docking peptide (human); VSAVQKLDFSDTM; partner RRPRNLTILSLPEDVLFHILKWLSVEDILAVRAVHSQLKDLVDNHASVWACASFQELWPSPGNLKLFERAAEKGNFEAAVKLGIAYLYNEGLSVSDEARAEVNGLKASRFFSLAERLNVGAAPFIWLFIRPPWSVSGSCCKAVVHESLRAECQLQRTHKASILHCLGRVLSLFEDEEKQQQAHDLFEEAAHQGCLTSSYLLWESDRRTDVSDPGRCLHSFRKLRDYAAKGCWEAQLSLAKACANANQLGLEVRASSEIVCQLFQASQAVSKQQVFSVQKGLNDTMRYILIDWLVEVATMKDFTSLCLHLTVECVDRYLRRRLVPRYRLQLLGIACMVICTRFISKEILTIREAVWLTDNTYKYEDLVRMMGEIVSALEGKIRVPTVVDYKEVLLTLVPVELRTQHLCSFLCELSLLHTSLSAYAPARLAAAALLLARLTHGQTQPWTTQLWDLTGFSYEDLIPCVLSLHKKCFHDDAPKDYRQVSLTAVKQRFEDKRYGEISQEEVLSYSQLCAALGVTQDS
VSAVQKPDFSDTM [L7P]: -0.493
VSAVQKLSFSDTM [D8S]: 0.499
VSAVQKLDFSDAM [T12A]: 0.869
VSAVQKLDFMDTM [S10M]: 0.0945
VSAVQKLDFSDNM [T12N]: 0.515
VSAVQKLDFNDTM [S10N]: 0.0703
VSAVQKEDFSDTM [L7E]: 0.0617
VSAVQKLDFSYTM [D11Y]: 0.71
VSAVQKLDFVDTM [S10V]: 0.264
CSAVQKLDFSDTM [V1C]: 1.74
VSAVQKLDFSQTM [D11Q]: 0.668
VSAVQKLDFHDTM [S10H]: -0.0227
VCAVQKLDFSDTM [S2C]: 0.295
VSAVQKRDFSDTM [L7R]: -0.0815

Set 2
Target: ABI1, truncated, D143A, DHFR fusion (Arabidopsis thaliana)
Technique: DHFR PCA, deep sequencing
Sample: yeast
Notes: methotrexate growth selection, single substitutions
Together with: (+)-ABA 2500 µM
Relative to: wild-type fitted maximum
Direction: higher = stronger binding
Quantity: relative binding score
Starting sequence: PYL1, truncated, DHFR fusion (Arabidopsis thaliana); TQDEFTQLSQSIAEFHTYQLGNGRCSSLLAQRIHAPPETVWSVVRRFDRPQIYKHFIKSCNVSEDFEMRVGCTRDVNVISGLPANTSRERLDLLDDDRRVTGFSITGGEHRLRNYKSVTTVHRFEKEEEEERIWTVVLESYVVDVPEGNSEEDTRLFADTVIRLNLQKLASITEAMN
V76Q: 58.5%
D3E: 89%
I79E: 84.8%
T1S: 95.9%
S80A: 79.5%
S150P: 66.9%
S87F: 5.11%
E174W: 78.6%
N149I: 72.6%
I79P: 82.3%
D97E: 97.7%
S11N: 93.2%
G71L: 73.8%

Set 3
Target: Fragile X messenger ribonucleoprotein 1, C-terminal low-complexity region (Fmr1, Mus musculus, UniProt P35922)
Technique: RNA Bind-n-Seq
Molecule type: RNA
Sample: in vitro
Tested at: 200 nM
Notes: whole 134-nt RNA, ends assumed
Together with: 150 mM KCl
Relative to: input library
Direction: higher = stronger binding
Quantity: log2 enrichment
All sequences stand within: GGGAGUUCUACAGUCCGACGAUC … UGGAAUUCUCGGGUGUCAAGG
AAGUCCUGUGCUACACAUCGUAUGUACCGAAUCGGGCCCCGGGCCCCGGGGCCCCGGAAAGUAUUAUGUUACGCCGUUCGGAUCUGCACU: 1.24
CUGUGCUACACAUCGUAUGUACCGAAUCGGAAAAAAAGGGGAAAAAAAGGGGAAAAAAAGGGAAAGUAUUAUGUUACGCCGUUCGGAUCU: -0.374
UAACUUUAGAGGAGGAUCUGAUGGAUAUGGCAGUGGACGUCGAUUUGGGGAUGGCUAUAAUGGGUAUGGAGGAGGACCUGGAGGUGGCAA: 0.191
CCUGUGCUACACAUCGUAUGUACCGAAUCGGGGAAAAAAGGGAAAAAAGGGAAAAAAGGGGAAAGUAUUAUGUUACGCCGUUCGGAUCUG: -0.697
UCCUGUGCUACACAUCGUAUGUACCGAAUCGGGCCCCCCGGCCCCCCGGGCCCCCCGGGAAAGUAUUAUGUUACGCCGUUCGGAUCUGCA: -0.345
CUGUGCUACACAUCGUAUGUACCGAAUCGGGGUUUUUGGGGAAAAAGGGGUUUUUUUGGGGAAAGUAUUAUGUUACGCCGUUCGGAUCUG: 0.149
CACAGACAACACGCACCCACAGAGACACAGAGGGAAGGGGUUGGGAUGGGGACAGGGUGCACAGCAGGGCGGGGUAGGACCCCAGCCCCU: 1.24
CUCAAGUCCUGUGCUACACAUCGUAUGUACCGAAUCGGGUGGGGUGGGGUGGGAAAGUAUUAUGUUACGCCGUUCGGAUCUGCACUUCCA: 1.03
UUUAUCAUGAGGAGCUCAACGCGCCCAUACGGAGAAACAAAGAAGAGCCCAAGGCCCGGCCCUUGAGAGUAGGUGACACGGAGAAGCCAG: -0.446

Set 4
Target: Protein C-ets-1 (ETS1, Homo sapiens, UniProt P14921, residues 1-441, K379A, full length assumed)
UniProt P14921, sequence (whole entry, unmodified, looked up): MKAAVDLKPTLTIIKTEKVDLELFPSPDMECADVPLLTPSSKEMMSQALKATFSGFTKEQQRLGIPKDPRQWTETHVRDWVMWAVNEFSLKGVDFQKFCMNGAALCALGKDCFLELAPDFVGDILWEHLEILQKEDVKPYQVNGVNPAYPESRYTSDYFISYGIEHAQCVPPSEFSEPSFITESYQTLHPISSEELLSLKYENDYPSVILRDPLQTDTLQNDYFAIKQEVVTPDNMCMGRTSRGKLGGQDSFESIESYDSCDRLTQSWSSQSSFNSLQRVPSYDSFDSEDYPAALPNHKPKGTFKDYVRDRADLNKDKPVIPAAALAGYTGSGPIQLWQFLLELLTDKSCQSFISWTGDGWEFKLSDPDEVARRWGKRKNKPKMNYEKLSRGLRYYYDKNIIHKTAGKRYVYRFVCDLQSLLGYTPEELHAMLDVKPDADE
Technique: protein-binding microarray
Molecule type: double-stranded DNA, one strand shown
Sample: in vitro
Tested at: not given
Notes: k-mer, scored over probes, only values ≥0.25
Direction: higher = stronger binding
Quantity: E-score
CGGATATC: 0.338
AAGCGCTT: 0.276
CCCGGTGC: 0.329
CCCGGCGG: 0.311
ACAACACC: 0.281
CGGAAGAC: 0.272
AACATCCG: 0.334
GCCGGGAC: 0.27
CCGCCCCA: 0.417
ACAGTAAT: 0.273
GGCGGGAC: 0.31
AGTACACA: 0.259
GCCCTCCC: 0.255
CGGATACA: 0.275
ACCGTCGC: 0.297
ACCTGTCG: 0.286
AACAATAA: 0.264
GCCCCGGA: 0.313
CGCTTCCG: 0.286

Set 5
Target: Histone acetyltransferase KAT6A, both winged helices, GST fusion (KAT6A, Homo sapiens, UniProt Q92794, residues 1-181)
Technique: protein binding microarray
Molecule type: double-stranded DNA, one strand shown
Sample: in vitro
Tested at: not given
Notes: 8-mer, flanks averaged, mean of 2 arrays, mostly near background
Relative to: not given
Direction: higher = stronger binding
Quantity: E-score
Construct (chain): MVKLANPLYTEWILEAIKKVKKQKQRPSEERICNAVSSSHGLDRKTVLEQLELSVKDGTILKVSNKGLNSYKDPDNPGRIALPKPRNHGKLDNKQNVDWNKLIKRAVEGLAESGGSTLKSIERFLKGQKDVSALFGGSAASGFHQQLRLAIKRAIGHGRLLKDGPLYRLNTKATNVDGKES
ATCGGTTA: 0.178
GAAGATGC: -0.0654
GCGTACTA: 0.221
GGTATGAA: -0.0516
GAAGCTGA: -0.0331
GATCCATC: -0.0461
CGTCTGTA: 0.0212
CACTAGTC: -0.115
CTGCTCCC: -0.0139
GATTTGGC: -0.142
CCCTGTTC: -0.233
GGTTAGCA: -0.0429
CCGACTGC: 0.141
ACATGCAT: -0.0537
ACAGTTCG: 0.136
CAGAAACA: 0.0102
AGATAAAG: -0.0931
CCGCTTTC: 0.199
TAAGCGCA: 0.177

Set 6
Target: Hepatocyte nuclear factor 3-alpha (Foxa1, Mus musculus, UniProt P35582, residues 1-468, full length assumed)
Technique: EMSA with sequencing
Molecule type: double-stranded DNA, one strand shown
Sample: in vitro
Tested at: 10 and 20 nM
Notes: whole designed probe, mean of two concentrations, ends assumed
Relative to: negative control set to 0
Direction: higher = stronger binding
Quantity: normalised bound fraction
All sequences stand within: GTGAGCGGTGCCCATTGATGGGGAAC … TTTCACTGGGATCGTGGGGAC
Target sequence (chain): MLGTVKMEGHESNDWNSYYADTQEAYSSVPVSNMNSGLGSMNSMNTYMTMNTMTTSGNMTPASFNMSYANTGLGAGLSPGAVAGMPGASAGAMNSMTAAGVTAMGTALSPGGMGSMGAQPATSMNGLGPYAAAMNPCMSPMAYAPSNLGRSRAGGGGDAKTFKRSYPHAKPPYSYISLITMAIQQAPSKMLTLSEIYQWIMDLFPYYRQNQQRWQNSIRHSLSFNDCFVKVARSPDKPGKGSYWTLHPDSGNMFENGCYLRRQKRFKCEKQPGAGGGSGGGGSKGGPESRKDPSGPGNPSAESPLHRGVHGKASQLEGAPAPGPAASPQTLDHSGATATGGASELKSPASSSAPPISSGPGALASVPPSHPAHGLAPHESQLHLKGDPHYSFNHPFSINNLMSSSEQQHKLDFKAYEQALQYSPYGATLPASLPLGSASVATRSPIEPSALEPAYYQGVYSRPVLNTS
TCCCTTTGTTCTACTCCTATACTCAAGTAATTCTGGAACACAGGCCATTTCACAAAGATTCTCTTCCCTATACACCAAAATTACCTTTATTTCTAGATTACTTAGCAAGCTTCTACATATCATTTCAGGTTTAGTTCTAACAAGCCTTTTCTTATGAACCTTTGTTTGATCTTCCTCCCTCCATCCTCTCCTT: 0.136 ratio
GTGTGCTAGCCTGTGAGTTTTTCTCTCCAACTAGCCTGGGTACTCAGGAAAGTGAGATCAACTTCTGGGTGGCCTTGGGTGTAGCTGACCTGTGCAAATAGGGGAGACAGTTGACATACAGATGAAAGGGGAGATGGGAAGCCATACAGAGGAAGGAGAAGATCAGGAACCAGAGATAAGATAATTCTGTAAA: 0.231 ratio
ATTTGTAATTCTATTGGCAAATCCTTCTTTAGAAATTTTCCATGACAGACACGATGCTACCTTTGAAATTATGTGAACCATAGCAAATCAAAGTAAACAAATAATTCATCAACCAAAATATCAAAGTCCAACTGCCACCATTTAATTAGGCACATTTCATTAACTTTAGGAGCTCCTGGCTTAACTAAGCCAA: 0.461 ratio
ATCTTTGCTGGGGTTGGGCCATAGCTTGATGGGTATTTGTTGAATGACTAATAAATGACTTATAGGCTAACAGCCTCCTTTGAAGTAGGCTGAGCAATCTAACCATTAAGTGGAACATGGTGTCTAGGTTACACAGCTCACTCATCTGCTAATCACTGGGGCACACTGCTGGTTATTATTACCTGAGACCCTG: 0.117 ratio
TGAAGCCTAGTGTTCTCTCTCAACCCCAGCTCAAACAGATATTTTGAAAAGGAAACAGAAACTCCACACACTTCCCAGATTGCCTATTTCCAAGATTACATTTCTCTAACAGCTAACACTATGTTTGGTTAGTTTAACTAAGTTATCCTGCTCACTTAAAATTCTATTTTTTTCTGGTTATATCTGACAATAG: 0.0718 ratio
ACCCGCGTGCAAGGGGACCGAGCCCCGGGAAGGGGAAGAACTTGTAATCGCTTGCAGCGGGACAATGTCGACTTTTGAACCTCTAACCACTAAGCAATCTACCCATGTGCTCTTGCTCCACTGTCCAAACAGGGTTTATTGACAGGCGTTTCACGGCAACGCATAGCAACCCCGGCGGCTAGGGGGCGGGCCT: 0.0381 ratio

Further values, each from its own experiment
PhoQ, residues 284 288 289 292 302 303 NSMLDC  fold induction (PhoP, residues 12 14 15 18 19 NMSFL (Escherichia coli, UniProt P23836); Sort-seq, measured: YFP reporter; E. coli; PhoQ-PhoP variant library, together with: 10 µM Mg2+; relative to: high Mg2+ state, higher = stronger signaling): 8.97

Some of these lines once more (set 6):
TCCCTTTGTTCTACTCCTATACTCAAGTAATTCTGGAACACAGGCCATTTCACAAAGATTCTCTTCCCTATACACCAAAATTACCTTTATTTCTAGATTACTTAGCAAGCTTCTACATATCATTTCAGGTTTAGTTCTAACAAGCCTTTTCTTATGAACCTTTGTTTGATCTTCCTCCCTCCATCCTCTCCTT: 0.136 ratio
GTGTGCTAGCCTGTGAGTTTTTCTCTCCAACTAGCCTGGGTACTCAGGAAAGTGAGATCAACTTCTGGGTGGCCTTGGGTGTAGCTGACCTGTGCAAATAGGGGAGACAGTTGACATACAGATGAAAGGGGAGATGGGAAGCCATACAGAGGAAGGAGAAGATCAGGAACCAGAGATAAGATAATTCTGTAAA: 0.231 ratio
ATTTGTAATTCTATTGGCAAATCCTTCTTTAGAAATTTTCCATGACAGACACGATGCTACCTTTGAAATTATGTGAACCATAGCAAATCAAAGTAAACAAATAATTCATCAACCAAAATATCAAAGTCCAACTGCCACCATTTAATTAGGCACATTTCATTAACTTTAGGAGCTCCTGGCTTAACTAAGCCAA: 0.461 ratio
ATCTTTGCTGGGGTTGGGCCATAGCTTGATGGGTATTTGTTGAATGACTAATAAATGACTTATAGGCTAACAGCCTCCTTTGAAGTAGGCTGAGCAATCTAACCATTAAGTGGAACATGGTGTCTAGGTTACACAGCTCACTCATCTGCTAATCACTGGGGCACACTGCTGGTTATTATTACCTGAGACCCTG: 0.117 ratio
TGAAGCCTAGTGTTCTCTCTCAACCCCAGCTCAAACAGATATTTTGAAAAGGAAACAGAAACTCCACACACTTCCCAGATTGCCTATTTCCAAGATTACATTTCTCTAACAGCTAACACTATGTTTGGTTAGTTTAACTAAGTTATCCTGCTCACTTAAAATTCTATTTTTTTCTGGTTATATCTGACAATAG: 0.0718 ratio
ACCCGCGTGCAAGGGGACCGAGCCCCGGGAAGGGGAAGAACTTGTAATCGCTTGCAGCGGGACAATGTCGACTTTTGAACCTCTAACCACTAAGCAATCTACCCATGTGCTCTTGCTCCACTGTCCAAACAGGGTTTATTGACAGGCGTTTCACGGCAACGCATAGCAACCCCGGCGGCTAGGGGGCGGGCCT: 0.0381 ratio
